{"data": "Measurements gathered from unrelated publications", "note": "Lines come from different studies, so protocols differ. ± gives the spread as reported."}
{"SMILES": "CC(C)C[C@H](NC(=O)[C@H](CCC1CCCCC1)NC(=O)[C@@H]1CCCN1C(=O)c1ccc(F)cc1)C(=O)NC(C)(C)C(=O)N[C@@H](CC(C)C)C(=O)N[C@@H](CC(C)C)C(=O)NC(C)(C)C(=O)NC(C)(C)C(=O)NCCC(=O)NCCN(C)C", "method": "potentiometric titration", "matrix": "methanol-water 1:4, NaCl 150 mM", "notes": "terminal amine", "pKa": 7.3}
{"SMILES": "Br.Br.Br.O=c1c(O)cccn1CCN1CCN(CCn2cccc(O)c2=O)CCN(CCn2cccc(O)c2=O)CC1", "method": "potentiometric titration", "matrix": "hydroxypyridinone group", "notes": "pKa4", "pKa": 8.84}
{"SMILES": "Cc1ccc(-c2ccc(-c3cc4sccc4o3)cn2)nc1", "method": "pH titration", "notes": "conjugate acid of ligand", "pKa": 4.3}
{"SMILES": "O=S(=O)([O-])CCCSCCN(CCSCCCS(=O)(=O)[O-])CCSCCCS(=O)(=O)[O-].[Na+].[Na+].[Na+]", "method": "potentiometric or spectrophotometric titration", "notes": "ionic strength 0.1", "pKa": 7.11}
{"SMILES": "Cc1ccccc1-c1cc(N2CCN(C(=O)[C@@H](N)CCCNC(=N)N)CC2)ccc1N(C)C(=O)C(C)(C)c1cc(C(F)(F)F)cc(C(F)(F)F)c1", "method": "potentiometric titration", "matrix": "67% methanol in water", "pKa": "> 10"}
{"SMILES": "Cc1ccc(CC(=O)N/N=C/c2cc(Br)c(O)c(Br)c2O)cc1", "method": "spectrophotometric titration", "refers to": "first phenolic para-hydroxyl", "matrix": "aqueous NaCl with buffer", "tested at": "10 µM", "pKa": "~5.5"}
{"SMILES": "COc1ccc(/C=C/c2ccc(-c3ccc(C)cn3)nc2)cc1", "method": "pH titration", "notes": "conjugate acid of ligand", "pKa": 4.5}
{"SMILES": "Cc1ccccc1-c1cc(N2CCCCC2)ccc1N(C)C(=O)C(C)(C)c1cc(C(F)(F)F)cc(C(F)(F)F)c1", "method": "potentiometric titration", "matrix": "67% methanol in water", "pKa": 4.31}
{"SMILES": "O=C(NC1CCCCN=CC1=O)OCc1ccccc1 (stereo not shown)", "method": "13C chemical shift titration", "temperature": "25 °C", "pKa": "6.24 ± 0.03"}
{"SMILES": "COC(=O)c1ccccc1-c1c2ccc(=O)cc-2oc2c1ccc1cccc(O)c12", "method": "UV absorption spectra", "matrix": "water with 10% DMSO", "notes": "hydroxyl group", "pKa": 7.72}
{"SMILES": "C#CCN1CCN(C(=O)c2cc(Cc3n[nH]c(=O)c4ccccc34)ccc2F)CC1", "method": "experimental", "pKa": "4.48 ± 0.06"}
{"SMILES": "CONC(=O)c1noc2ccccc12", "method": "potentiometric titration", "matrix": "0.15 M KCl", "notes": "Yasuda-Shedlovsky extrapolation", "pKa": 6.35}
{"SMILES": "CCC(=O)N1CCN(c2ccc(N(C)C(=O)C(C)(C)c3cc(C(F)(F)F)cc(C(F)(F)F)c3)c(-c3ccccc3C)c2)CC1", "method": "potentiometric titration", "matrix": "67% methanol in water", "pKa": "< 3"}
{"SMILES": "O=c1[nH]c(-c2noc3ccccc23)no1", "method": "potentiometric titration", "matrix": "0.15 M KCl", "notes": "Yasuda-Shedlovsky extrapolation", "pKa": 3.74}
{"SMILES": "CCCC[C@H](NC(=O)[C@H](CC(C)C)N(C)C(=O)CNC(=O)[C@@H](NC(=O)[C@H](Cc1ccccc1)NC(=O)[C@H](CCCCN)NC(=O)[C@@H](N)CC(=O)O)C(C)C)C(N)=O", "method": "potentiometric titration", "notes": "second pKa", "pKa": "7.71 ± 0.07"}
{"SMILES": "CC1=C2[O][Ru-]([Cl])[O+]=C2C=CN1CCCCCCN1C=CC2=[O+][Ru-]([Cl])[O]C2=C1C.Cc1ccc(C(C)C)cc1.Cc1ccc(C(C)C)cc1", "method": "NMR pD titration", "pKa": "9.6 ± 0.02"}
{"SMILES": "O=c1[nH]c(-c2n[nH]c3ccccc23)no1", "method": "potentiometric titration", "matrix": "0.15 M KCl", "notes": "Yasuda-Shedlovsky extrapolation", "pKa": 4.73}
{"SMILES": "Cc1ncsc1-c1ccc([C@H](C)NC(=O)[C@@H]2C[C@@H](O)CN2C(=O)[C@@H](NC(=O)CN2CCN(C(=O)C[C@@H]3N=C(c4ccc(Cl)cc4)c4c(sc(C)c4C)-n4c(C)nnc43)CC2)C(C)(C)C)cc1", "method": "experimental", "pKa": "2.32 ± 0.03"}
{"SMILES": "O=c1c(Br)c2oc3c(CN(Cc4ccccn4)Cc4cnccn4)c(O)ccc3nc-2c2ccccc12", "method": "fluorescence", "notes": "first pKa", "pKa": 5.35}
{"note": "Repeated from above:"}
{"SMILES": "Cc1ccc(-c2ccc(-c3cc4sccc4o3)cn2)nc1", "method": "pH titration", "notes": "conjugate acid of ligand", "pKa": 4.3}
{"SMILES": "CCC(=O)N1CCN(c2ccc(N(C)C(=O)C(C)(C)c3cc(C(F)(F)F)cc(C(F)(F)F)c3)c(-c3ccccc3C)c2)CC1", "method": "potentiometric titration", "matrix": "67% methanol in water", "pKa": "< 3"}
{"SMILES": "O=c1[nH]c(-c2noc3ccccc23)no1", "method": "potentiometric titration", "matrix": "0.15 M KCl", "notes": "Yasuda-Shedlovsky extrapolation", "pKa": 3.74}
